# Results collected from several papers.
# Protocols differ between the studies behind these lines. ± marks the error that the study gave.
# Target: Delta-type opioid receptor (Oprd1, Rattus norvegicus, UniProt P33533)
# Sequence of UniProt P33533 (whole entry, looked up): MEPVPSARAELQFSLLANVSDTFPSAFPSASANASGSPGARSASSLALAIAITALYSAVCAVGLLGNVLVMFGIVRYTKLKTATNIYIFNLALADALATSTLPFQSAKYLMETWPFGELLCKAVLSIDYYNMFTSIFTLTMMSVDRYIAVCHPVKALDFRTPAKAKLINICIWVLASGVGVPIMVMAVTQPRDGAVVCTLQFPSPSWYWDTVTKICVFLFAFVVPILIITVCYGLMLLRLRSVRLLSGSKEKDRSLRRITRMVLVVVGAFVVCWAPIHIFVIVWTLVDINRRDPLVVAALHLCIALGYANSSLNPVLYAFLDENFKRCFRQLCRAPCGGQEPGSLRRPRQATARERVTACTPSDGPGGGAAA
SMILES,assay,setting,Ki [nM]
Cc1cc(O)cc(C)c1CC(N)C(=O)NC1CCNc2ccc(CN3CCOCC3)cc21 (centres unmarked),"ligand displacement, radioligand",cell membranes,140
Cc1cc(O)cc(C)c1C[C@H](N)C(=O)N1Cc2ccccc2C[C@H]1CN[C@@H](Cc1ccccc1)C(=O)N[C@@H](Cc1ccccc1)C(N)=O,"ligand displacement, radioligand",cell membranes,0.4
CCNC(=O)c1cc(Cc2ccccc2)cc2c1NCCC2NC(=O)C(N)Cc1c(C)cc(O)cc1C (centres unmarked),"ligand displacement, radioligand",cell membranes,1.8
Cc1cc(O)cc(C)c1C[C@H](N)C(=O)N[C@@H](C(=O)NCC(=O)N[C@@H](Cc1ccc2ccccc2c1)C(=O)N[C@@H](CC(C)C)C(=O)N[C@@H](CO)C(N)=O)[C@H](C)O,"ligand displacement, radioligand","pH 7.4, cell membranes",0.7
NCCCC[C@H]1NC(=O)[C@H](Cc2ccc(O)cc2)NC(=O)CNC(=O)[C@H](Cc2ccc(O)cc2)NC(=O)[C@H](CNC(=O)c2ccccc2N)NC1=O,binding,,1220 ± 278
CC(C)C[C@H](NC(=O)[C@H](Cc1ccc2ccccc2c1)NC(=O)CNC(=O)[C@H](NC(=O)[C@@H](N)Cc1ccc(O)cc1)[C@H](C)O)C(=O)N[C@@H](CO[C@@H]1O[C@H](CO)[C@@H](O)[C@H](O)[C@H]1O)C(N)=O,"ligand displacement, radioligand","pH 7.4, cell membranes",0.87
Cc1cc(O)cc(C)c1CC(N)C(=O)NC1CCNc2c(CN3CCOCC3)cc(Cc3ccccc3)cc21 (centres unmarked),"ligand displacement, radioligand",cell membranes,2.3
Cc1cc(O)cc(C)c1CC(N)C(=O)NC1CCNc2ccc(CN3CCC4CCCCC4C3)cc21 (centres unmarked),"ligand displacement, radioligand",cell membranes,4.8
CCCCc1cc(Cc2ccccc2)cc2c1NCCC2NC(=O)C(N)Cc1c(C)cc(O)cc1C (centres unmarked),"ligand displacement, radioligand",cell membranes,3.6
CC(C)C[C@H](NC(=O)[C@H](Cc1ccc2ccccc2c1)NC(=O)CNC(=O)[C@H](NC(=O)[C@@H](N)Cc1ccc(O)cc1)[C@H](C)O)C(=O)N[C@@H](CO)C(N)=O,"ligand displacement, radioligand","pH 7.4, cell membranes",0.47
Cc1cc(O)cc(C)c1CC(N)C(=O)NC1CCNc2ccc(Cc3cccnc3)cc21 (centres unmarked),"ligand displacement, radioligand",cell membranes,17

# Repeated from above:
SMILES,assay,setting,Ki [nM]
Cc1cc(O)cc(C)c1CC(N)C(=O)NC1CCNc2ccc(CN3CCOCC3)cc21 (centres unmarked),"ligand displacement, radioligand",cell membranes,140
